Measurements collected from several papers.
A part holds a random share of what one study measured. Positions count from the first letter of the parent shown.

Block 1
Target: Interferon regulatory factor 7, full length, phosphomimetic (IRF7, Homo sapiens, UniProt Q92985, residues 1-503, S101K/S471D/S472D/S475D/S476D/S477D/S483D/S484D/S487D)
Sequence of UniProt Q92985 (whole entry, unmodified, looked up): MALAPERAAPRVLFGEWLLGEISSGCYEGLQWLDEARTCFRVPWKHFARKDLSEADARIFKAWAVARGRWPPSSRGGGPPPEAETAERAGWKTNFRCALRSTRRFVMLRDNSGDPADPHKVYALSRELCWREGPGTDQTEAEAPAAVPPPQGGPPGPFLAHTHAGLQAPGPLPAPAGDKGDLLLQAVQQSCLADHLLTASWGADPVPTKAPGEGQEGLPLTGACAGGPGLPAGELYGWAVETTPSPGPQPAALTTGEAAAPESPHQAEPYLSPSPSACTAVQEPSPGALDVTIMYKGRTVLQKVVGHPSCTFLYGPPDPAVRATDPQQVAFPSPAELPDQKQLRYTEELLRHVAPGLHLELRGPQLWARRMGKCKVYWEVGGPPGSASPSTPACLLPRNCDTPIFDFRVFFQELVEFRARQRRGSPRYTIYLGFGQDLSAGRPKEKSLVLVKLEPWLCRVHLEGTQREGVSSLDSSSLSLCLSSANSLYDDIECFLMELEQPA
Technique: protein-binding microarray
Form: double-stranded DNA, one strand shown
Sample: in vitro
Concentration: 250 nM
Notes: 60-bp whole probe
Together with: salmon DNA 0.4 mg/ml
Relative to: random background probes
Direction: higher = stronger binding
Shared flanks, not repeated: GCCTAGCAC … GTCTTGATTCGCTTGACGCTGCTG
For `TCCTCTTTACTGCTCCACACGTGCTAG`, the log fluorescence was 0.971 z-score.
For `TCACTTCCCCATCTTGTACTGTGCTAG`, the log fluorescence was 2.17 z-score.
The log fluorescence of `TCATATACCACTCTTGCACTGTGCTAG` is reported as 0.586 z-score.
`GACGGTTCCGGTTTCGAGACGTGCTAG` has a log fluorescence of 7.94 z-score.
`TTAGGTATCCTTTTCCTTTGGTGCTAG` gave a log fluorescence of 1.52 z-score.
For `TTAGATTCCAGACTGGATTAGTGCTAG`, the log fluorescence was 0.594 z-score.
The log fluorescence of `GAGGGTATCGGTCTCGGGACGTGCTAG` is reported as 0.18 z-score.
`TTAGGACTGGACAGTGGGTTAGTGCTA` has a log fluorescence of -0.664 z-score.
`TTAGTTATCGGACTGGGTTAGTGCTAG` has a log fluorescence of 0.472 z-score.
For `GATGGACTGGGTCTCGGGACGTGCTAG`, the log fluorescence was -0.32 z-score.
With `GAAGCTTCCTCTCTGCCACTGTGCTAG` the log fluorescence was 0.0452 z-score.
The log fluorescence of `ATTATGTTTGCTTTGTTCTGGTGCTAG` is reported as 0.735 z-score.
`TTAGGTTTCGGGTTTCGGTCAGTGCTA` gave a log fluorescence of 11 z-score.
For `TTAGGTATCGGCCTGGGTTAGTGCTAG`, the log fluorescence was -0.165 z-score.
For `TGAGGTATCGACTATCGGTTAGTGCTA`, the log fluorescence was -0.0383 z-score.
For `GACGGTATCGGTTTTCGGGACGTGCTA`, the log fluorescence was 3.89 z-score.
For `TTAGGTATTGGTTTCGGTTAGTGCTAG`, the log fluorescence was 9.24 z-score.

Block 2
Target: RNA binding protein fox-1 homolog 2, RRM domain, GST-SBP tag (RBFOX2, Homo sapiens, UniProt O43251-10, residues 100-194)
Technique: RNA Bind-n-Seq
Form: RNA
Sample: in vitro
Concentration: 365 nM
Notes: natural RNA segment, single round, ends assumed
Relative to: no-protein control
Direction: higher = stronger binding
Shared flanks, not repeated: GGGAGUUCUACAGUCCGACGAUC … UGGAAUUCUCGGGUGCCAA
Residues (chain): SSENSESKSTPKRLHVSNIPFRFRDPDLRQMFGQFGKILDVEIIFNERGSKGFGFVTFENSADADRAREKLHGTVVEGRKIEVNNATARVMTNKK
For `GGCUCCUCCAGCCGCCCCCAUGGGAAGAGGCCUGGUACCGCCUCACCCACAGAGGUCUGUGCCAGGUGCGCUUCUGCAGGUGGAGCCAAGCUCUCCCUGAGGCCAGAGGC`, “RBNS enrichment (R)” read 0.236.
Under “RBNS enrichment (R)”, `UAAAAGUGCACUUAAAAUGAAUCUUUAUUAUUGCUGAGAUUUUAAUAGACAAUCCAAAGUCUCCCCUUCUGUUGCCGUCAUCUUGUUUAAUCAACCAUUUUUCAAGGCAC` is recorded as 0.495.
`GCCUUGGCCACAGGAAGCUGCCGAGACUGGCCAUGUGGCUGGGCUAGGCUGUGCCCUCCCUCUCCCUCAGCGCUGGAAGUCGGGGUGGGGCAGGUUCUGUGGAAGAAGUU` — result for “RBNS enrichment (R)”: 0.639.
For `CUCCAACUCCCAUGCUGUGCGUGUCCCUCUGAGAACCAACUGAGGCUAGAACCCUAGGGUCCCUGCUGAGUUCCACAGGGGUGGCCAUCACACACCUGUAUCCCUGGUAU`, “RBNS enrichment (R)” read 0.344.
`UUCUACAGAAUAGGUCAGAUCUUGGCCUCCCAAACCCCUUAUUUUUAAAAUACUUUGCGCCUUGCUUUGAUAAUUUGUAUUAUGUAUCCAAACUGAAAUUAUCUGCUUUC`: “RBNS enrichment (R)” 1.02.
`GAGUCCUACCCACUCUGUCCCCAUCACCUUUCUCCACUGGGUGCAGAUCCUAGCUCCGCCUCCUGGGCAGUCCUUCUGAAAAGUCCCAUGUAAGCAGCAAAGGGGCGUAA` — result for “RBNS enrichment (R)”: 0.447.
`UCAGCCCUCCGGAGAGACUACCCUAGUCUUUCUGGGGUGUUUAUGUCCUCAGCUGAAGCCUGGCCUAGUUGCUGAGAGGGGCUGGGGAGAUGGGGCGGGAGGGCCAGACU`: “RBNS enrichment (R)” 0.246.
Under “RBNS enrichment (R)”, `UGAGCUUCUAGAGGGAUGGUUUGGCUUACUAAUUUAUCUUCCCUGAAAUAUGUUUGAGUAAAAAAGAGUUGCCUGCCACAAUUUAGUGUUGGGGUUCCAGUGGAGCUGAG` is recorded as 1.55.

Block 3
Target: CCND2, cyclin fold, Cln2 fusion (human)
Technique: yeast growth competition, sequencing
Sample: yeast
Notes: weak parent motif
Relative to: not given
Direction: higher = stronger binding
Starting sequence: CDC25A docking peptide (human); PPHRRRLLFACSP
`P2H` — result for “normalised enrichment score”: 0.167.
`P2G`: “normalised enrichment score” 0.25.
Under “normalised enrichment score”, `L8V` is recorded as 0.237.
For `P1A`, “normalised enrichment score” read 0.172.
`R4Y` — result for “normalised enrichment score”: 0.405.
For `R6E`, “normalised enrichment score” read 0.0205.
For `S12K`, “normalised enrichment score” read -0.0345.
`R5C` — result for “normalised enrichment score”: -0.0993.
For `R4F`, “normalised enrichment score” read 0.164.
Under “normalised enrichment score”, `R5W` is recorded as -0.241.
Under “normalised enrichment score”, `P13S` is recorded as 0.155.
`R5A R6A L7A L8A`: “normalised enrichment score” -0.0597.
Under “normalised enrichment score”, `R5S` is recorded as -0.0271.
`L8P`: “normalised enrichment score” -0.0714.
For `H3K`, “normalised enrichment score” read 0.0585.
For `A10G`, “normalised enrichment score” read -0.21.
`F9Q` — result for “normalised enrichment score”: 0.23.
For `R4S`, “normalised enrichment score” read -0.122.
`R5T`: “normalised enrichment score” -0.0787.
`H3L` — result for “normalised enrichment score”: 0.178.

Block 4
Target: ABI1, truncated, D143A, DHFR fusion (Arabidopsis thaliana)
Technique: DHFR PCA, deep sequencing
Sample: yeast
Notes: methotrexate growth selection, single substitutions
Together with: (+)-ABA 17 µM
Relative to: wild-type fitted maximum
Direction: higher = stronger binding
Starting sequence: PYL1, truncated, DHFR fusion (Arabidopsis thaliana); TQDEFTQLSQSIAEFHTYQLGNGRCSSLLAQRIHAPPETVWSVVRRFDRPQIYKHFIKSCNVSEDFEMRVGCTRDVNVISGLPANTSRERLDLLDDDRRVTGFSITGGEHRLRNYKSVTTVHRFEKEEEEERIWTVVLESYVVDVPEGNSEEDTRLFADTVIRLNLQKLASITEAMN
For `E151W`, “relative binding score” read 59.1%.
`G71I` — result for “relative binding score”: -4.16%.
For `Q31D`, “relative binding score” read 9.19%.
`I162L`: “relative binding score” 26.3%.
`P50A`: “relative binding score” 8.34%.
Under “relative binding score”, `F5H` is recorded as 77.1%.
For `G23A`, “relative binding score” read 65.8%.
Under “relative binding score”, `G81C` is recorded as 25.3%.
`S63Y` — result for “relative binding score”: 57.5%.
`E151F` — result for “relative binding score”: 73.3%.
Under “relative binding score”, `T106V` is recorded as 98.7%.
For `A175W`, “relative binding score” read 66.4%.
`E38R`: “relative binding score” 36.3%.
`E131K`: “relative binding score” 100%.
`S117Y` — result for “relative binding score”: -23.6%.
`P36I` — result for “relative binding score”: 34.5%.
`T135N` — result for “relative binding score”: 6.03%.
For `D144T`, “relative binding score” read 48.3%.
For `G102N`, “relative binding score” read -3.71%.
For `G81L`, “relative binding score” read 19.4%.
Under “relative binding score”, `N114K` is recorded as 26.4%.
For `Q7P`, “relative binding score” read 76%.
For `E152F`, “relative binding score” read 67.5%.
`W134D`: “relative binding score” 89.2%.
For `G71P`, “relative binding score” read 9.57%.

Excerpt of the above (block 4):
Under “relative binding score”, `F5H` is recorded as 77.1%.
For `G23A`, “relative binding score” read 65.8%.
Under “relative binding score”, `G81C` is recorded as 25.3%.
`S63Y` — result for “relative binding score”: 57.5%.
`E151F` — result for “relative binding score”: 73.3%.
